Results of several laboratories.
pEC50, pKd: −log10 of the molar value.
U2AF2: U2AF2 148-342 (Homo sapiens, UniProt P26368)
UniProt P26368, sequence (whole entry, looked up): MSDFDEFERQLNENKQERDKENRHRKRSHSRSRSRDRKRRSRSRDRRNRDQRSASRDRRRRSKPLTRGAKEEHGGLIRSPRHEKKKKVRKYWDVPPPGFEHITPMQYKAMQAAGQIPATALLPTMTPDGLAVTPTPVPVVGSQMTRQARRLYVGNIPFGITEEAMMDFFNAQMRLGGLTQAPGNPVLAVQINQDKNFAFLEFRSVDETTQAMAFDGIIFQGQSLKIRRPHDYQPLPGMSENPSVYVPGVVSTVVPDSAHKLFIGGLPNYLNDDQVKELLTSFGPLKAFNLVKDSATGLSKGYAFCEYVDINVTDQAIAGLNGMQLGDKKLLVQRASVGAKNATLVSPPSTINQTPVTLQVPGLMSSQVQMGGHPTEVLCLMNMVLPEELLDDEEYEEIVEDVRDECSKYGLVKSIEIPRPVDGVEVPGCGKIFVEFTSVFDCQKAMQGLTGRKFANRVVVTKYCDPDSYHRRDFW
B1: human calpain-1; sequence looked up; chain SEEIITPVYCTGVSAQVQKQRARELGLGRHENAIKYLGQDYEQLRVRCLQSGTLFRDEAFPPVPQSLGYKDLGPNSSKTYGIKWKRPTELLSNPQFIVDGATRTDICQGALGDCWLLAAIASLTLNDTLLHRVVPHGQSFQNGYAGIFHFQLWQFGEWVDVVVDDLLPIKDGKLVFVHSAEGNEFWSALLEKAYAKVNGSYEALSGGSTSEGFEDFTGGVTEWYELRKAPSDLYQIILKALERGSLLGCSIDISSVLDMEAITFKKLVKGHAYSVTGAKQVNYRGQVVSLIRMRNPWGEVEWTGAWSDSSSEWNNVDPYERDQLRVKMEDGEFWMSFRDFMREFTRLEICNLTPDALKSRTIRKWNTTLYEGTWRRGSTAGGCRNYPATFWVNPQFKIRLDETDDPDDYGDRESGCSFVLALMQKHRRRERRFGRDMETIGFAVYEVPPELVGQPAVHLKRDFFLANASRARSEQFINLREVSTRFRLPPGEYVVVPSTFEPNKEGDFVLRFFSEKSAGTVELDDQIQANLPDEQVLSEEEIDENFKALFRQLAGEDMEISVKELRTILNRIISKHKDLRTKGFSLESCRSMVNLMDRDGNGKLGLVEFNILWNRIRNYLSIFRKFDLDKSGSMSAYEMRMAIESAGFKLNKKLYELIITRYSEPDLAVDFDNFVCCLVRLETMFRFFKTLDTDLDGVVTFDLFKWLQLTMFA
B2: human USP15; sequence looked up; chain AEGGAADLDTQRSDIATLLKTSLRKGDTWYLVDSRWFKQWKKYVGFDSWDKYQMGDQNVYPGPIDNSGLLKDGDAQSLKEHLIDELDYILLPTEGWNKLVSWYTLMEGQEPIARKVVEQGMFVKHCKVEVYLTELKLCENGNMNNVVTRRFSKADTIDTIEKEIRKIFSIPDEKETRLWNKYMSNTFEPLNKPDSTIQDAGLYQGQVLVIEQKNEDGTWPRGPSTPKSPGASNFSTLPKISPSSLSNNYNNMNNRNVKNSNYCLPSYTAYKNYDYSEPGRNNEQPGLCGLSNLGNTCFMNSAIQCLSNTPPLTEYFLNDKYQEELNFDNPLGMRGEIAKSYAELIKQMWSGKFSYVTPRAFKTQVGRFAPQFSGYQQQDCQELLAFLLDGLHEDLNRIRKKPYIQLKDADGRPDKVVAEEAWENHLKRNDSIIVDIFHGLFKSTLVCPECAKISVTFDPFCYLTLPLPMKKERTLEVYLVRMDPLTKPMQYKVVVPKIGNILDLCTALSALSGIPADKMIVTDIYNHRFHRIFAMDENLSSIMERDDIYVFEININRTEDTEHVIIPVCLREKFRHSSYTHHTGSSLFGQPFLMAVPRNNTEDKLYNLLLLRMCRYVKISTETEETEGSLHCCKDQNINGNGPNGIHEEGSPSEMETDEPDDESSQDQELPSENENSQSEDSVGGDNDSENGLCTEDTCKGQLTGHKKRLFTFQFNNLGNTDINYIKDDTRHIRFDDRQLRLDERSFLALDWDPDLKKRYFDENAAEDFEKHESVEYKPPKKPFVKLKDCIELFTTKEKLGAEDPWYCPNCKEHQQATKKLDLWSLPPVLVVHLKRFSYSRYMRDKLDTLVDFPINDLDMSEFLINPNAGPCRYNLIAVSNHYGGMGGGHYTAFAKNKDDGKWYYFDDSSVSTASEDQIVSKAAYVLFYQRQDTFSGTGFFPLDRETKGASAATGIPLESDEDSNDNDNDIENENCMHTN

colistin — MIC (Escherichia coli; broth microdilution; clinical isolate RKI-No_581/16): ≤ 0.5 µg/mL
colistin — MIC (Pseudomonas aeruginosa; PA1802 PER-producing isolate): 0.5 µg/mL
human AHSA1 — log2 fold change (CYB5R4 knockout human cells; PP4 interaction, 3xFLAG-PP4C IP-MS; concentration not given; baseline: CYB5R4 KO over parental): -3.88
GGAUUGGUG (ssRNA) — pKd (U2AF2; sequencing of bound RNA; RNA; motif only): 5.74
human VCP — log2 fold change (CYB5R4 knockout human cells; PP4 interaction, 3xFLAG-PP4C IP-MS; concentration not given; baseline: CYB5R4 KO over parental): 0.5
epoetin alfa — pEC50 (UT7/EPO; phosphorylation, agonist, item: phospho-GSK-3β; 10 min): 10.68
B1 (human calpain-1) — log2 fold change (PP6C (human); co-immunoprecipitation, IP-MS; CYB5R4 knockout cells; concentration not given; baseline: CYB5R4 knockout over parental): 0.66
GUUUACCAC (ssRNA) — pKd (U2AF2; sequencing of bound RNA; RNA; motif only): 6.07
Peginesatide — mRNA level (UT7/EPO; RT-qPCR, item: EGR1; concentration not given, 90 min, normalized to HPRT1; baseline: vehicle): 42.4 fold
PMESGICTIV — binding intensity (construct, MBP fusion, human SCRIB, PDZ 3-4; automated holdup; peptide, crude extract; concentration not given, corrected by standard peak, unit not given; baseline: biotin control resin, higher = stronger binding): 0.0824
human RAD50 — log2 fold change (CYB5R4 knockout human cells; PP6 interaction, 3xFLAG-PP6C IP-MS; concentration not given; baseline: CYB5R4 KO over parental): 0.62
GSGAGRETEV — binding intensity (construct, MBP fusion, human SCRIB, PDZ 3-4; automated holdup; peptide, crude extract; concentration not given, corrected by standard peak, unit not given; baseline: biotin control resin, higher = stronger binding): 0.61
heparin sodium — AUEC of ACT ratio (human; intravenous infusion, 8 IU/kg/h, day 1 to 6; baseline: baseline): 136
GSGAGIATEV — binding intensity (construct, MBP fusion, human SCRIB, PDZ 3-4; automated holdup; peptide, purified PDZ protein; concentration not given, unit not given; baseline: biotin control resin, higher = stronger binding): 0.135
B2 (human USP15) — log2 fold change (CYB5R4 knockout human cells; PP4 interaction, 3xFLAG-PP4C IP-MS; concentration not given; baseline: CYB5R4 KO over parental): -0.98
maraviroc — protein level (Western blot; mice, NSG hu-PBL, HIV-infected, somatosensory cortex; i.p., 120 mg/kg twice daily, 3 weeks post infection; baseline: HIV-infected untreated mice, decrease): 1.34 fold
GSGAGICTIV — binding intensity (construct, MBP fusion, human SCRIB, PDZ 3-4; automated holdup; peptide, crude extract; concentration not given, uncorrected, unit not given; baseline: biotin control resin, higher = stronger binding): 0.044

For quick reference, copied from above:
human RAD50 — log2 fold change (CYB5R4 knockout human cells; PP6 interaction, 3xFLAG-PP6C IP-MS; concentration not given; baseline: CYB5R4 KO over parental): 0.62
human AHSA1 — log2 fold change (CYB5R4 knockout human cells; PP4 interaction, 3xFLAG-PP4C IP-MS; concentration not given; baseline: CYB5R4 KO over parental): -3.88
